Published values collected from several papers.
Lines come from different studies, so protocols differ. ± gives the spread as reported.

Compound	cell line	assay	setting	IC50 [µM]
C[C@H](CCC=O)[C@@H]1CC[C@]2(C)C3=C(CC[C@@]12C)[C@@]1(C)CC[C@H](O)C(C)(C)[C@@H]1CC3	SK-LU-1	cell growth or viability, SRB		39.9
O=C(O)c1ccc([P+]([Au-][Cl])(c2ccccc2)c2ccccc2)cc1	UO-31	cell viability, XTT	72 h	1.2
Cc1ccc(C(C)C)cc1.N=C(N)Nc1nc2ccccc2s1.[Cl-].[Cl][Ru+]	BPH-1	cell growth or viability, MTT	24 h	175
CC(C)(C)c1nc(-c2ccc(NC(=O)c3cccs3)cc2Cl)no1	MRC5 lung fibroblasts	cytotoxicity, LDH release		> 30
CC(C)Cc1ccc(C(C)C(=O)[O][Pt]([NH2])([NH2])([Cl])([Cl])[O]C(=O)C(Cl)Cl)cc1 (stereo not drawn)	six human cancer lines	cytotoxicity, MTT		0.41
CC1CNCCN1C(=O)c1cn(C23CCCC(C)(CCC4C2CC4(C)C)C3)nn1 (stereo not drawn)	NCM460	cell growth or viability, CCK-8	72 h	21.6
CCN(CC)CCN1C(=O)c2ccc3c4cccc5c(NCCN)ccc(c6ccc(c2c36)C1=O)c54	A549, PC-3, HL-60	cytotoxicity, SRB	72 h, range over three lines	3.1 to 7.4
Cc1cc(C=O)cc(C)c1Oc1cc(Nc2ccc(C#N)cc2)nc2ccncc12	H69AR (multidrug resistant)		48 h	> 127
COc1ccc(C[C@H]2COC(=O)[C@@H]2Cc2ccc(OCCCCCCCCC(=O)NO)c(OC)c2)cc1OC	KU812	cell growth or viability, CCK-8	48 h	3.72
COCCOCCSc1nc(N)c2c(F)c(C#N)c(F)c(Cl)c2n1	SGC-7901	cell growth or viability, MTT	96 h	5.84
O=c1[nH]c(=O)n([C@@H]2O[C@H](CSSC[C@H]3O[C@@H](n4cc(F)c(=O)[nH]c4=O)[C@H](O)[C@@H](F)[C@@H]3O)[C@@H](O)[C@H](F)[C@H]2O)cc1F	FM3A	cell growth or viability		71
COc1ccc(CN2C[C@H](O)[C@H](O)[C@@H]2CO)cc1	HCT116 p53-/-	MTS	72 h	> 200
COc1c(O)cc2oc3cc4c(c(O)c3c(=O)c2c1CC(O)C(C)(C)O)CC(O)O4 (stereo not drawn)	HL-60, SMMC-7721, A549, MCF7, SW480	cytotoxicity	all lines	> 40
CCC(C)C1OC(=O)C(C)(C)C(O)C(Cc2ccccc2)OC(=O)C(C(C)C)OC(=O)C(NC(=O)c2cccc(O)c2)C(C)OC1=O (stereo not drawn)	NCM460	cell growth or viability, CCK-8	72 h	> 50
O=C(O)/C(Cc1ccccc1[N+](=O)[O-])=N\Nc1nc2c(s1)CS(=O)(=O)c1c-2ccc(Cl)c1Cl	CRL-2351	cell growth, sulforhodamine B	5 days	> 20
Cc1cc(C=O)cc(C)c1Oc1cc(Nc2ccc(C#N)cn2)nc2ccncc12	H69AR (multidrug resistant)		48 h	> 126
N#Cc1cccc(-c2ccc(=O)n(Cc3cccc(-c4ncc(OCC5CCN(CCCCCCCCC(=O)Nc6cccc7c6C(=O)N(C6CCC(=O)NC6=O)C7=O)CC5)cn4)c3)n2)c1 (stereo not drawn)	Hs746T	cell growth or viability, CCK-8	72 h	0.103
CC(=O)NCCCN(C)CCCNc1cccc2c1C(=O)c1cccc(NCCCN(C)CCCNC(C)=O)c1C2=O	ASF-4-4L2	cell proliferation, CCK-8	48 h	5.4
CC/C(=C(\c1ccc(O)cc1)c1ccc(OCCN(C)CCOCCOCCOCCOCCN(C)CCOc2ccc(/C(=C(/CC)c3ccccc3)c3ccc(O)cc3)cc2)cc1)c1ccccc1	MDA-MB-231 (ER-negative)	cell growth	96 h	1.23
CCn1c2ccccc2c2cc(C(O)c3cccc4ncccc34)ccc21 (stereo not drawn)	sample B patient-derived glioma cells	tumour microtube number per cell	24 h	0.015
O=C(/C=C/c1ccc2c(c1)C(=O)N(CCCc1ccccc1)CC2)NO	Bel-7402	cell growth, SRB	72 h	1.5 ± 0.09
CC(C)=CCC1=C([O-])C(=O)c2ccccc2C1=O.O=[N+]([O-])[O-].[Cu+2].c1ccc(-c2cccc(-c3ccccn3)n2)nc1	HOS	cell viability, MTT	24 h	42.8 ± 3.3
C=C(C)[C@@H]1CC[C@]2(C(=O)O)CC[C@]3(C)[C@H](CC[C@@H]4[C@@]5(C)CC[C@H](O[C@@H]6O[C@@H](C)[C@H](O)[C@@H](O)[C@H]6O)C(C)(C)[C@@H]5CC[C@]43C)[C@@H]12	human Skin fibroblast	cell growth or viability	48 h	9
O=c1ccn([C@@H]2O[C@H](CSSC[C@H]3O[C@@H](n4ccc(=O)[nH]c4=O)[C@H](O)[C@@H](F)[C@@H]3O)[C@@H](O)[C@H](F)[C@H]2O)c(=O)[nH]1	FM3A	cell growth or viability		123
COC1CCC(Nc2nc(-c3nccn3C)nc3sc(-c4ccn(C)n4)c(-c4ccccc4)c23)C1 (stereo not drawn)	PANC-1 (KRAS G12D)	Western blot, measured: phospho-MEK and phospho-ERK1/2	6 h, together with: EGF 15 min	~1
CN1CCCC1CS(=O)(=O)NC12CCCC(C)(CCC3C1CC3(C)C)C2 (stereo not drawn)	NCM460	cell growth or viability, CCK-8	72 h	28.1

Compound	cell line	assay	setting	IC50 [µM]
CCC1=C(CC)C2=[N+]3C1=Cc1c(CC)c(CC)c4[n]1[Ir-3]31([Cl])([C]#[O+])[n]3c(c(CC)c(CC)c3=CC3=[N+]1C(=C4)C(CC)=C3CC)=C2	human cancer cell lines	cytotoxicity	dark	> 50
O=C1c2ccc3c4cccc5cccc(c6ccc(c2c36)C(=O)N1CCN1CCCCC1)c54	A549, PC-3, HL-60	cytotoxicity, SRB	72 h, range over three lines	36.9 to 50.9
CCCC(CCC)C(=O)[O][Pt]([Cl])([Cl])[O]C(C)=O.N.N	seven cancer cell lines	cytotoxicity	mean over panel	5.4
COCCOCCSc1nc(N)c2c(F)c(C#N)c(F)c(F)c2n1	SGC-7901	cell growth or viability, MTT	96 h	5.68
CC1OC(OCC2OC(Oc3cc(O)c4c(=O)cc(-c5ccc(O)c(O)c5)oc4c3)C(O)C(O)C2O)C(O)C(O)C1O (stereo not drawn)	HCT-116 p53+/+	cell viability, resazurin reduction	72 h	> 100
Cc1ccc(NC(=O)c2c(C)oc3ccc(O)c(CN4CCCCCC4)c23)cc1	AMO1	cell growth or viability, MTS	72 h	11.3
N#Cc1cccc(-c2ccc(=O)n(Cc3cccc(-c4ncc(OCC5CCN(CCCCCC(=O)Nc6cccc7c6C(=O)N(C6CCC(=O)NC6=O)C7=O)CC5)cn4)c3)n2)c1 (stereo not drawn)	Hs746T	cell growth or viability, CCK-8	72 h	0.0516
C(=C/c1ccccc1)/c1ccccc1	U-937	cell growth or viability, ATP luminescence	24 h	30
CCCCN(CCCC)CC(O)COc1c2ccoc2c(OC)c2oc(CC)cc(=O)c12 (stereo not drawn)	HTB-140	viability, MTT	72 h	17.5 ± 3.4
C=C1CCC(O)C(C)=CCC2C1CC2(C)O (stereo not drawn)	KPC	cell viability, CCK-8	72 h	> 50
COc1ccc(-c2nnc(-c3ccccn3)[nH]2)cc1OC	T24	cell growth or viability, MTT	24 h	> 100
COC(=O)[C@H]1[C@H]2C[C@H]3O[C@@]4(CCN3C[C@H]2C[C@@H](OC(=O)c2cc(OC)c(OC)c(OC)c2)[C@@H]1OC)C(=O)Nc1cc(OC)c(-c2ccc(F)cc2)cc14	SUP-T1	cell growth or viability, trypan blue	72 h	7.01
CN1CCN(c2ccc(Nc3ncc(Cl)c(Nc4ccccc4NS(=O)(=O)C4CC4)n3)cc2)CC1	Ba/F3 EGFR L858R/T790M/C797S	cell growth, CCK-8	48 h	0.018
Cc1cc(C)c(-n2c3c([n+](-c4c(C)cc(C)cc4C)[c]2[Cu-][Cl])-c2cccc4cccc-3c24)c(C)c1	CHO	cell growth or viability, MTT	72 h	1.3
Cc1nc(-c2ccc(Cl)cc2)nc(N2CCC(C)(N)CC2)c1Cc1ccccc1	AGS	cell growth or viability, WST-1	72 h	6.5
COc1cc2ncnc(Nc3ccc(F)c(Cl)c3)c2cc1NC(=O)/C=C/CN(C)C	HCC827	cell growth or viability, SRB	72 h	< 0.001
C=C1C(=O)OC2CC3=C[C@@H](C/C(C)=C/C(OC(=O)Cc4cccc5ccccc45)[C@H]12)OC3=O (stereo partly drawn)	U-937	cell growth or viability, MTT	24 h	0.18
C=CC(=O)N1C[C@H](C)N(c2nc(OC[C@@]34CCCN3C[C@H](F)C4)nc3c(F)c(-c4ccc(F)c5sc(N)c(C#N)c45)c(C(F)(F)F)cc23)C[C@H]1C	A-375 (BRAF V600E)	HTRF, measured: pERK	2 h	> 10
C=C1CCC(=O)C(C)CCC2C1CC2(C)C(=O)C=CC(C)(C)O (stereo not drawn)	KPC	cell viability, CCK-8	72 h	12 ± 1.65
C[N+]1(C)CC[NH2+][Pt-2]1([OH])([Cl])([Cl])[O]C(=O)CCC(=O)OCCO	SW1573	cell growth or viability	96 h	134
CC1=NN(C(N)=S)C(c2ccccc2)C1 (stereo not drawn)	human Skin fibroblast	cell growth or viability, LDH	48 h	18.2
N#Cc1cccc(-c2ccc(=O)n(Cc3cccc(-c4ncc(OCC5CCN(CC(=O)NCCOCCOCCOCCNc6ccc7c(c6)C(=O)N(C6CCC(=O)NC6=O)C7=O)CC5)cn4)c3)n2)c1 (stereo not drawn)	Hs746T	cell growth or viability, CCK-8	72 h	0.00772
CC(=O)O[C@H]1CC[C@]2(C)[C@H]3CC=C4[C@@H]5[C@@H](C)[C@H](C)CC[C@]5(C(=O)O)CC[C@@]4(C)[C@]3(C)CC[C@H]2C1(C)C	AGS	cell growth or viability, MTT	24 h	42.9
CC/C(=C(\c1ccc(O)cc1)c1ccc(OCCN(C)CCOCCOCCOCCN(C)CCOc2ccc(/C(=C(/CC)c3ccccc3)c3ccc(O)cc3)cc2)cc1)c1ccccc1	MDA-MB-231 (ER-negative)	cell growth	96 h	1.95
N#Cc1c(-c2ccc(Cl)cc2)cc(-c2cccc3ccccc23)nc1Nc1ccc(Nc2nc(-c3cccc4ccccc34)cc(-c3ccc(Cl)cc3)c2C#N)cc1	U-937	cell growth or viability, MTT	72 h	1.44

Excerpt of the above:
Compound	cell line	assay	setting	IC50 [µM]
Cc1cc(C)c(-n2c3c([n+](-c4c(C)cc(C)cc4C)[c]2[Cu-][Cl])-c2cccc4cccc-3c24)c(C)c1	CHO	cell growth or viability, MTT	72 h	1.3
Cc1nc(-c2ccc(Cl)cc2)nc(N2CCC(C)(N)CC2)c1Cc1ccccc1	AGS	cell growth or viability, WST-1	72 h	6.5
COc1cc2ncnc(Nc3ccc(F)c(Cl)c3)c2cc1NC(=O)/C=C/CN(C)C	HCC827	cell growth or viability, SRB	72 h	< 0.001
C=C1C(=O)OC2CC3=C[C@@H](C/C(C)=C/C(OC(=O)Cc4cccc5ccccc45)[C@H]12)OC3=O (stereo partly drawn)	U-937	cell growth or viability, MTT	24 h	0.18
C=CC(=O)N1C[C@H](C)N(c2nc(OC[C@@]34CCCN3C[C@H](F)C4)nc3c(F)c(-c4ccc(F)c5sc(N)c(C#N)c45)c(C(F)(F)F)cc23)C[C@H]1C	A-375 (BRAF V600E)	HTRF, measured: pERK	2 h	> 10
C=C1CCC(=O)C(C)CCC2C1CC2(C)C(=O)C=CC(C)(C)O (stereo not drawn)	KPC	cell viability, CCK-8	72 h	12 ± 1.65
C[N+]1(C)CC[NH2+][Pt-2]1([OH])([Cl])([Cl])[O]C(=O)CCC(=O)OCCO	SW1573	cell growth or viability	96 h	134
